Measured values of several laboratories.
Every numbered part comes from another study and shows a few of its results, in no order. Changes are numbered by the printed parent chain.
UniProt O23661, sequence (whole entry, looked up): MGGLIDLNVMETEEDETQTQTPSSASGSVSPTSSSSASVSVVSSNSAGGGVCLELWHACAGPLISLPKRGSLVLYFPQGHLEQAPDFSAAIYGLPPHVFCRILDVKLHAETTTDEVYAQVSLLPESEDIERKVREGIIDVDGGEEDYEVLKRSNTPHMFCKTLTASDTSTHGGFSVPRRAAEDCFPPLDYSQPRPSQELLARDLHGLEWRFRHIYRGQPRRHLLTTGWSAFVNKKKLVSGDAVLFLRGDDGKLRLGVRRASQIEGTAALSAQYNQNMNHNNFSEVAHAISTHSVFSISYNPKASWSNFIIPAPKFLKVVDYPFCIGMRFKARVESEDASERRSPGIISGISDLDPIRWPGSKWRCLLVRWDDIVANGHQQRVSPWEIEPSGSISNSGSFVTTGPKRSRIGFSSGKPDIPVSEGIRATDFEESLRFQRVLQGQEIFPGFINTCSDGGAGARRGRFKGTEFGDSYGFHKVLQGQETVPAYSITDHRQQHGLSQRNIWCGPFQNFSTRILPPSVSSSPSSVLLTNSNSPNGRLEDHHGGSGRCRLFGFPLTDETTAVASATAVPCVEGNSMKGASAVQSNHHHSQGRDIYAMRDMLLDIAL

Set 1
Substitution: L94D
Target: ABI1, truncated, D143A, DHFR fusion (Arabidopsis thaliana)
Method: DHFR PCA, deep sequencing
Matrix: yeast
Setting: methotrexate growth selection, single substitutions
Reference: wild-type fitted maximum
Reading: higher = stronger binding
Parent: PYL1, truncated, DHFR fusion (Arabidopsis thaliana); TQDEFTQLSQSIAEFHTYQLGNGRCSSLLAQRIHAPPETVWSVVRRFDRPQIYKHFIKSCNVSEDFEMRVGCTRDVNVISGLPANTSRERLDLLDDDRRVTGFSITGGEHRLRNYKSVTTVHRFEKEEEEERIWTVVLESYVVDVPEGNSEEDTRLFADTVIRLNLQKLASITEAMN; partner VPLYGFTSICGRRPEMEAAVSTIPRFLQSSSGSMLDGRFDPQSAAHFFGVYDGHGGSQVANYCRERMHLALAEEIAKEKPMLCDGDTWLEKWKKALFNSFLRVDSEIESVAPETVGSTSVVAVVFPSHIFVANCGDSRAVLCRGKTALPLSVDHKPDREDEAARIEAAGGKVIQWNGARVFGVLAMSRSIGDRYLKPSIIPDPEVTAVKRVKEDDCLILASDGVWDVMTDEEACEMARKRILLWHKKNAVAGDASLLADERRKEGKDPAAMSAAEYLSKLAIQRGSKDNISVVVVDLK
The “relative binding score” was 52.4% (added: (+)-ABA 2500 µM).
The “relative binding score” was -1.54% (added: (+)-ABA 1.4 µM).
For added: (+)-ABA 0.11 µM: “relative binding score” read -11.3%.
For added: (+)-ABA 0.0091 µM: “relative binding score” read -10.8%.
It gave 17.6% for “relative binding score” (added: (+)-ABA 710 µM).
For added: (+)-ABA 0.032 µM: “relative binding score” read 3.09%.

Further values, each from its own experiment
ARF5: ARF5 788-902 (Arabidopsis thaliana, UniProt P93024)
UniProt P93024, sequence (whole entry, looked up): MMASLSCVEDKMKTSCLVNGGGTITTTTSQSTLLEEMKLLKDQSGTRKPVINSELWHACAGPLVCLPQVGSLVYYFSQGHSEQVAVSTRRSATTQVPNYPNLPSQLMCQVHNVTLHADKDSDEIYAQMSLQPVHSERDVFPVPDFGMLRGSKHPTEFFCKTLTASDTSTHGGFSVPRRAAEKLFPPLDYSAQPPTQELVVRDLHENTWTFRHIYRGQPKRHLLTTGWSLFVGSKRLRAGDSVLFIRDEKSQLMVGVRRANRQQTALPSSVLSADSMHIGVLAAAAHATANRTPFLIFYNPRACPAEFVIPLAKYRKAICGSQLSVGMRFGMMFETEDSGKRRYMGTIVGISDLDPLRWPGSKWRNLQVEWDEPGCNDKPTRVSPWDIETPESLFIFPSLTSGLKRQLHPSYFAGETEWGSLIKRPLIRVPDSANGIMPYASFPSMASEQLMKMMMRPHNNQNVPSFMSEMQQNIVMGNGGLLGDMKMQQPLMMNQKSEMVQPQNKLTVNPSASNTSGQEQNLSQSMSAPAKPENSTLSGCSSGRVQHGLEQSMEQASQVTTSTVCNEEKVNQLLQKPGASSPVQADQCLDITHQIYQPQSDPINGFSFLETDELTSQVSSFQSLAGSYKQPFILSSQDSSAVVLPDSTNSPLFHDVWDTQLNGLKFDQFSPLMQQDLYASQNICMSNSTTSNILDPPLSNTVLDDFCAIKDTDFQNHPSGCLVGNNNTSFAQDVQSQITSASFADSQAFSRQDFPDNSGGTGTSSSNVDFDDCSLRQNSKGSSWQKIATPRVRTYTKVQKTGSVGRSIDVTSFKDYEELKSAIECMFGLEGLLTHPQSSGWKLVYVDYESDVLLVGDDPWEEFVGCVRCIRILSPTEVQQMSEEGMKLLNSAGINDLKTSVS
P1: viral docking peptide; KGVKRKLFAEDSS; partner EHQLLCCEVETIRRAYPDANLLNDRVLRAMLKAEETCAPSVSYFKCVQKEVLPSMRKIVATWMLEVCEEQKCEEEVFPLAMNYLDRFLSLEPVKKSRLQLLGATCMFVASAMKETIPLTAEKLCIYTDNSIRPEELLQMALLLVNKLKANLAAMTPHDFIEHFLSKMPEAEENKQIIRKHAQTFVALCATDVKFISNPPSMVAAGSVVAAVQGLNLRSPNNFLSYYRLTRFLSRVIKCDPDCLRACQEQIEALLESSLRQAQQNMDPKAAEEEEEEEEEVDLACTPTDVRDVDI
B1: IAA33 (Arabidopsis thaliana, UniProt Q9FKM7); chain MNSFEPQSQDSLQRRFHQDNSTTQQPRDTTTPFIPKPASKNHNNSNSSSGAAGRSFQGFGLNVEDDLVSSVVPPVTVVLEGRSICQRISLDKHGSYQSLASALRQMFVDGADSTDDLDLSNAIPGHLIAYEDMENDLLLAGDLTWKDFVRVAKRIRILPVKGNTRQVKRNE
P2: PafA, mature enzyme, eGFP fusion (Elizabethkingia meningoseptica, UniProt Q9KJX5); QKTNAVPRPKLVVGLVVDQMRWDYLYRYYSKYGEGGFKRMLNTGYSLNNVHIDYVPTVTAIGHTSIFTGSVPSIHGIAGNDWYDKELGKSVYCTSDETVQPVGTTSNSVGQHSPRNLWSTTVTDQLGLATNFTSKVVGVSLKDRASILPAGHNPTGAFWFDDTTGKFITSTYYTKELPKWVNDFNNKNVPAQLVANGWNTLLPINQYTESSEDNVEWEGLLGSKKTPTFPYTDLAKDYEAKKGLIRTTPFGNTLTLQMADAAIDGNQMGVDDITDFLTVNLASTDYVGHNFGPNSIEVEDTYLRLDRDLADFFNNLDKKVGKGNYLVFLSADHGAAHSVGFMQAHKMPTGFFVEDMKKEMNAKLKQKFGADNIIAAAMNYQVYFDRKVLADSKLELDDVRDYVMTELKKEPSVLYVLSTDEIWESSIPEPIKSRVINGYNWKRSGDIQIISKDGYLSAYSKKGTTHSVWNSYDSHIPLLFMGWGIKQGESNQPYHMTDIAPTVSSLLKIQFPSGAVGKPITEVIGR
B2: IAA34 (Arabidopsis thaliana, UniProt Q9C5X0); chain MYCSDPPHPLHLVASDKQQKDHKLILSWKKPTMDSDPLGVFPNSPKYHPYYSQTTEFGGVIDLGLSLRTIQHEIYHSSGQRYCSNEGYRRKWGYVKVTMDGLVVGRKVCVLDHGSYSTLAHQLEDMFGMQSVSGLRLFQMESEFCLVYRDEEGLWRNAGDVPWNEFIESVERLRITRRNDAVLPF
B3: ARF1 538-665 (Arabidopsis thaliana, UniProt Q8L7G0); chain SRQIRSCTKVHMQGSAVGRAIDLTRSECYEDLFKKLEEMFDIKGELLESTKKWQVVYTDDEDDMMMVGDDPWNEFCGMVRKIFIYTPEEVKKLSPKNKLAVNARMQLKADAEENGNTEGRSSSMAGSR
`ETT (Arabidopsis thaliana, UniProt O23661)` gave a positive tests of 0 (ARF5; two-hybrid; reference: out of 4 tests, higher = firmer interaction).
For `P1 K6D`, “normalised enrichment score” read -0.398 (CCND1, cyclin fold, Cln2 fusion (human); yeast growth competition, sequencing; yeast; strong parent motif; reference: not given, higher = stronger binding).
`B1 (IAA33)` has a positive tests of 2 (ARF5; two-hybrid; reference: out of 4 tests, higher = firmer interaction).
Under “phosphate dissociation constant”, `P2 S425G` is recorded as 617 µM (inorganic phosphate, free oxyanion; microfluidic competitive inhibition; in vitro, cell-free expressed; not given, derived from inhibition constants, unchanged parent 615000 nM; lower = stronger binding).
For `B2 (IAA34)`, the positive tests was 3 (ARF5; two-hybrid; reference: out of 4 tests, higher = firmer interaction).
`B3 (ARF1 538-665)` gave a positive tests of 0 (ARF5; two-hybrid; reference: out of 4 tests, higher = firmer interaction).

A few entries again (further values, each from its own experiment):
Under “phosphate dissociation constant”, `P2 S425G` is recorded as 617 µM (inorganic phosphate, free oxyanion; microfluidic competitive inhibition; in vitro, cell-free expressed; not given, derived from inhibition constants, unchanged parent 615000 nM; lower = stronger binding).
